Experimental data of several laboratories.
Values joined by “and” are separate records of one study, mostly repeats; a detail may differ. ± gives the spread as reported.
Fibroin-modulator-binding protein-1: Fibroin-modulator-binding protein-1 99-193 (Bombyx mori, UniProt Q5FBS0)
SPT15/TOA1/TOA2/SUA7 1-240; 1-286; 1-122; 1-345: SPT15/TOA1/TOA2/SUA7 1-240; 1-286; 1-122; 1-345 (Saccharomyces cerevisiae)
UniProt Q64663, sequence (whole entry, unmodified, looked up): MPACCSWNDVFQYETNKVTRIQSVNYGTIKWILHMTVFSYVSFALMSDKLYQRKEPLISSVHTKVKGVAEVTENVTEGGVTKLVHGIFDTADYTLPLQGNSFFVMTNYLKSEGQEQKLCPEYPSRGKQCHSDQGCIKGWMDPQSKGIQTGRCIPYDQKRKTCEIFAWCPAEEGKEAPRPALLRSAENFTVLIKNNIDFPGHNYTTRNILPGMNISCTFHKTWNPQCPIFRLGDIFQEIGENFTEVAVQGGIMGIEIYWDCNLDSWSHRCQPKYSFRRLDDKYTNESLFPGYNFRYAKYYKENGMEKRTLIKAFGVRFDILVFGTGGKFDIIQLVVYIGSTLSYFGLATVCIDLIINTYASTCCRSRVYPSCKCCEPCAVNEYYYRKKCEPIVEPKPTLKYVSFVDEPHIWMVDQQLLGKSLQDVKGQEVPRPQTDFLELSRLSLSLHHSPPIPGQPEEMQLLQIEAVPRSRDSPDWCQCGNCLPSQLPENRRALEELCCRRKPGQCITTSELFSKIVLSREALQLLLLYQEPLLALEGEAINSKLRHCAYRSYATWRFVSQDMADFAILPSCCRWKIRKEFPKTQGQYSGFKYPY

Substance	tested on	assay	test system	setting	scale	quantity	result
ATTAATTAATTA (dsDNA)	Fibroin-modulator-binding protein-1	ITC	double-stranded DNA, one strand shown			Kd	805 ± 64.4 nM
TAAGACACGATGCGATAAAATCTG (dsDNA)	CGAS 161-522 K394E (Homo sapiens, UniProt Q8N884)	fluorescence anisotropy	double-stranded DNA, one strand shown			Kd	397 ± 39 nM
BzATP	P2X purinoceptor 7 (P2rx7, Rattus norvegicus, UniProt Q64663, I214A/R125A)	ion current, agonist, two-electrode voltage clamp	Xenopus laevis oocytes	100 µM	relative to: highest concentration response	normalized current	0.9 and 0.922 and 0.91
DNA 1 TGGGTGGGTAGGGTGGGTAGGGGAGGAT / DNA 2 ATCCTCCCCTA (DNA; intramolecular parallel G4, 5' overhang, 11-bp duplex)	REV1 330-833 S485L (Homo sapiens, UniProt Q9UBZ9)	FP	folded DNA	KCl 100 mM		Kd	4.9 ± 1 nM
11-deoxycorticosterone	CYP11B2 (human)	substrate binding, stopped-flow global kinetic fitting	purified enzyme	3-state induced fit model, together with: no adrenodoxin		rate constant k-2	1.21 ± 0.0595 s⁻¹
DNA 1 CACTGGCCGTCTTACGGTCGCTCTGCTCGACG / DNA 2 CGACCGTAAGACGGCCAGTG (dsDNA; 20 bp, 3' 12 nt overhang)	RECQL 63-592 Y564A (Homo sapiens, UniProt P46063)	fluorescence anisotropy	double-stranded DNA	together with: Mg2+ 3 mM		Kd	224 ± 72.5 nM
AAGCAAGCAAGC (dsDNA)	Fibroin-modulator-binding protein-1	ITC	double-stranded DNA, one strand shown			Kd	7010 nM
TGGTATAAAGATCAATCGAGAATTCCTGGTATGGATCAAGTCAATCGGTCC (dsDNA; 5'-amino-C6 primer)	SPT15/TOA1/TOA2/SUA7 1-240; 1-286; 1-122; 1-345	array	double-stranded DNA, one strand shown	TBP:TFIIA:TFIIB ternary complex		Kd	1.52 ± 0.19 nM
GCGCGCGCGCGC (dsDNA)	Fibroin-modulator-binding protein-1	ITC	double-stranded DNA, one strand shown			Kd	6610 nM
CCGGGTTCCTGTTTCCCGGCCGCGGCCACTCCAGATCAAGTCAATCGGTCC (dsDNA; 5'-amino-C6 primer)	SPT15/TOA1/TOA2/SUA7 1-240; 1-286; 1-122; 1-345	array	double-stranded DNA, one strand shown	TBP:TFIIA:TFIIB ternary complex		Kd	6.78 ± 3.84 nM
Peginesatide	UT7/EPO	tyrosine phosphorylation, LC-MS/MS phosphoproteomics, trypsin, measured: STAT3 tyrosine 705		10 nM, 15 min, together with: 10 U/mL EPO	relative to: vehicle	phosphorylation level	5.6 fold
CCAACCGGACTTTGGGGCTAGCGTTTAGAAAAGTCTCAAGTCAATCGGTCC (dsDNA; 5'-amino-C6 primer)	SPT15/TOA1/TOA2/SUA7 1-240; 1-286; 1-122; 1-345	array	double-stranded DNA, one strand shown	TBP:TFIIA:TFIIB ternary complex		Kd	4.44 ± 1.99 nM
colistin	Pseudomonas aeruginosa	broth microdilution	clinical isolate RKI-No_496/15			MIC	1 µg/mL

For quick reference, copied from above:
Substance	tested on	assay	test system	setting	scale	quantity	result
TGGTATAAAGATCAATCGAGAATTCCTGGTATGGATCAAGTCAATCGGTCC (dsDNA; 5'-amino-C6 primer)	SPT15/TOA1/TOA2/SUA7 1-240; 1-286; 1-122; 1-345	array	double-stranded DNA, one strand shown	TBP:TFIIA:TFIIB ternary complex		Kd	1.52 ± 0.19 nM
GCGCGCGCGCGC (dsDNA)	Fibroin-modulator-binding protein-1	ITC	double-stranded DNA, one strand shown			Kd	6610 nM
